Measured values from different studies.
Every numbered part comes from another study and shows a few of its results, in no order. Changes are numbered by the printed parent chain.

Study 1
Target: CCNA1, cyclin fold, Cln2 fusion (human)
Method: yeast growth competition, sequencing
Medium: yeast
Notes: weak parent motif
Baseline: not given
Direction: higher = stronger binding
Measurement: normalised enrichment score
Parent: PKN2 docking peptide (human); VSAVRKLDFSDTM
VSAIRKLDFSDTM [V4I]: 0.724
VSAVRALDFSDTM [K6A]: 0.622
VSAVRKLDFSDRM [T12R]: 0.977
VSAVRKLCFSDTM [D8C]: 0.269
VSAVVKLDFSDTM [R5V]: 0.147
VSALRKLDFSDTM [V4L]: 0.532
VSAVRKLDFGDTM [S10G]: 0.94
VIAVRKLDFSDTM [S2I]: 0.734
VSAVRKLDFSKTM [D11K]: 1.02
VSAVRKMDFSDTM [L7M]: 0.0333
VSAVYKLDFSDTM [R5Y]: 0.0928

Study 2
Target: Histone acetyltransferase KAT6A, winged helix 2, GST fusion (KAT6A, Homo sapiens, UniProt Q92794, residues 85-181)
Method: protein binding microarray
Form: double-stranded DNA, one strand shown
Medium: in vitro
Tested at: not given
Notes: 8-mer, flanks averaged, mean of 2 arrays, mostly near background
Baseline: not given
Direction: higher = stronger binding
Measurement: E-score
Residues (chain): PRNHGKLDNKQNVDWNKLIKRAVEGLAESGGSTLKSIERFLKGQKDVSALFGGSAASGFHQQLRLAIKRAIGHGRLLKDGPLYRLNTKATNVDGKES
CCACGCTC: -0.052
CGTAGGGA: -0.00379
CCGGTAAC: 0
CTACGAAG: -0.157
GGCTACAC: 0.03
CCGACTTA: 0.117
GGCCGTGA: 0.00632
TCATGCGA: 0.063
CGCTTGCA: 0.0475
CTGGTCCA: -0.0709
GTTACCAA: 0.0469
ATAGGGAG: -0.16
GAAGGGCA: 0.076
ACGTCTCG: -0.0694
CATGGTGC: 0.0487
ACAGGGTA: -0.0295
AGCAGATA: -0.0622
TCTTTCCA: -0.143
CCCCAAAA: 0.0859
AGGCAAGA: 0.00611
GAGAAGCC: 0.0315
AATCTATG: 0.131
TCGAATAA: -0.0348
GATTCTCA: 0.119
CCAAACCA: -0.0462

Study 3
Target: ABI1, truncated, D143A, DHFR fusion (Arabidopsis thaliana, UniProt P49597)
Method: DHFR PCA, dose-response
Medium: yeast
Notes: Hill fit, not affinity, not high confidence
Added: (+)-ABA, dose series
Direction: lower = more sensitive
Measurement: ABA EC50
Parent: PYL1, truncated, DHFR fusion (Arabidopsis thaliana, UniProt Q8VZS8); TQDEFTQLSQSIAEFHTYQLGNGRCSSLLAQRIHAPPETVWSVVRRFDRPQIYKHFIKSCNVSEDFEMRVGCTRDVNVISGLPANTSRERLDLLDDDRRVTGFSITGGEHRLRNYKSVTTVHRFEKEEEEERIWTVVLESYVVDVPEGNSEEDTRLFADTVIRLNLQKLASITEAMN
T173D: 742 µM
A170N: 61.2 µM
L169G: 104 µM
K54T: 0.03 µM
R45L: 1050 µM
Q167Y: 16.6 µM
K54I: 3.92 µM
V118D: 1390 µM
I162E: 3.83 µM
H110Q: 660 µM
L82G: 211 µM
T120L: 924 µM
I162Y: 12.5 µM

Other studies, line by line
PhoQ, residues 284 288 289 292 302 303 TAVSDG — fold induction (PhoP, residues 12 14 15 18 19 TQAIL (Escherichia coli, UniProt P23836); Sort-seq, item: YFP reporter; E. coli; PhoQ-PhoP variant library, added: 10 µM Mg2+; baseline: high Mg2+ state, higher = stronger signaling): 19.9

A few entries again (study 3):
L169G: 104 µM
K54T: 0.03 µM
R45L: 1050 µM
Q167Y: 16.6 µM
K54I: 3.92 µM
V118D: 1390 µM
